Published values from different studies.
Every numbered part comes from another study and shows a few of its results, in no order.

Series 1
Target: RNA binding protein fox-1 homolog 2, RRM domain, GST-SBP tag (RBFOX2, Homo sapiens, UniProt O43251-10, residues 100-194)
Method: RNA Bind-n-Seq
Molecule type: RNA
Sample: in vitro
Tested at: 365 nM
Setting: natural RNA segment, single round, ends assumed
Relative to: no-protein control
Reading: higher = stronger binding
Quantity: RBNS enrichment (R)
Construct (chain): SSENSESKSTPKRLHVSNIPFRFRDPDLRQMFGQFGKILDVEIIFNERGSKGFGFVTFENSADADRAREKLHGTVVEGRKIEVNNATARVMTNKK
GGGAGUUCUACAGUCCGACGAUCUGUCCCAAACUGGCCCACCAAUGAGCAUGGCGGCUCCGGCCAGGAAUGCCAGAGUUAGCCUCCCAGGCUUGCGGGUGGACAUGCCUGCUCCCUGCCAGCCUCCAGUGGCCUGGAAUUCUCGGGUGCCAA: 2.91
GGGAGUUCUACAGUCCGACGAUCCCCCGCCCUGAAGAGCUUCAGAAAUAGUGGGAGUUUCCCUAAAGCCUUUCAUAGCCUUAAUUCAUGUCAUGUAUAAAUUAACAUAAAUCAUGUCUAUUUACAUAGUGAAGUGGAAUUCUCGGGUGCCAA: 0.307
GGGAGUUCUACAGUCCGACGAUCCUCAUCUGAAUACCAAGCACAGAAAUGAGUGGUGUGACUAAUUCCUUACCUCUCCCAAGGAGGGUACACAACUAGCACCAUUCUUGAUGUCCAGGGAAGAAGCCACCUCAUGGAAUUCUCGGGUGCCAA: 0.272
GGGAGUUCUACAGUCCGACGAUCUCUUAGAAUUUUGAGGAAAAUCUGGGACUUGAGACCUGGAUUCUAACAGACCAACUGCAUGUGUGUCUGUAGGUCUCAGUUUCCACAUUCAUACAGUGAGGGUGUUAAGUUGGAAUUCUCGGGUGCCAA: 20.9
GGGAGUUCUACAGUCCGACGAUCGGGGACAUUAGACUGAAAACUGGGACAACCCCCUUCCUUAUUUUAUAGAGACUAGGAGUUAAGGGGCCUGCCUAAGAUUGCAGUGAUAAAGAACUGAACCCUAAAUCAGCUGGAAUUCUCGGGUGCCAA: 0.336
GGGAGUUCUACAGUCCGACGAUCAAGCAAAGUCACUUCUCCAUCACAACCAGAUUUGAGGCUGGUUUUGAUGGCUGGGUCCUUGGGCCUGGCCAGUCUUCCUCUUAGCCUCUGGAUCUAGAAGGGACCAUAAGUGGAAUUCUCGGGUGCCAA: 0.235
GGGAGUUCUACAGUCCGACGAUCUUUGGGAGUUUAUGCAAGGUGGCUGGGCUUUUAAGAACAACAUGGACAUCAGAAAUCACCAGAACCUUCAGGAUCGCCUGCAGGCAGCCCAUCUACUGCUGGCCAGGAGCUGGAAUUCUCGGGUGCCAA: 0.714
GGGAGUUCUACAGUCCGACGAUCGAGGGGCUCUCUACCUUUGAAACUAUGAGAACGUCUUAAAUUAAUAUGAAUAUUUCUCUCCAUGUAUAGUGUGAGCUGCCAAUGCAUUAUCUUAAUACAUCAAGAAGGAAUGGAAUUCUCGGGUGCCAA: 0.367

Series 2
Target: POU domain, class 5, transcription factor 1, POU domain (Pou5f1, Mus musculus, UniProt P20263, residues 131-289)
Chain of UniProt P20263 (131-289, looked up): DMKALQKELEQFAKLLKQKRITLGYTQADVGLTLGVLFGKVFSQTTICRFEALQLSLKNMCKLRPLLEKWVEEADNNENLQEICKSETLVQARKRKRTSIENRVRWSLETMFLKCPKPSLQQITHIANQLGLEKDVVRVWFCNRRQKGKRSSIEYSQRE
Method: Spec-seq
Molecule type: double-stranded DNA, one strand shown
Sample: in vitro
Tested at: not given
Setting: whole probe, mean of replicates
Relative to: not given
Reading: lower = stronger binding
Quantity: relative binding energy
Shared flanks, not repeated: GAGTCGTCTCGTCAGCAC … CCGTAGAGCACTCAGGTC
ATGCTGTC: 0.556 ln ratio
ATCACCAT: -0.701 ln ratio
ATTGTAAT: -0.225 ln ratio
ATGACTAT: 0.105 ln ratio
ATCTATAT: 0.175 ln ratio
ATTTCAAT: -0.668 ln ratio
ATAGGTAT: 0.643 ln ratio
ATGCGTTG: 0.374 ln ratio
TTGTTAAT: -1.39 ln ratio
GAGGTAAT: 0.602 ln ratio
ATGCCACT: 0.671 ln ratio
ATATGAAT: -0.736 ln ratio
ATTTGCAT: -3.13 ln ratio
ATCGTAAT: 0.464 ln ratio
TCACTAAT: 0.531 ln ratio
GTCGTAAT: 0.536 ln ratio

Series 3
Target: Sal-like protein 4, full length isoform A (SALL4, Homo sapiens, UniProt Q9UJQ4, residues 1-1053)
Chain of UniProt Q9UJQ4 (whole entry, looked up): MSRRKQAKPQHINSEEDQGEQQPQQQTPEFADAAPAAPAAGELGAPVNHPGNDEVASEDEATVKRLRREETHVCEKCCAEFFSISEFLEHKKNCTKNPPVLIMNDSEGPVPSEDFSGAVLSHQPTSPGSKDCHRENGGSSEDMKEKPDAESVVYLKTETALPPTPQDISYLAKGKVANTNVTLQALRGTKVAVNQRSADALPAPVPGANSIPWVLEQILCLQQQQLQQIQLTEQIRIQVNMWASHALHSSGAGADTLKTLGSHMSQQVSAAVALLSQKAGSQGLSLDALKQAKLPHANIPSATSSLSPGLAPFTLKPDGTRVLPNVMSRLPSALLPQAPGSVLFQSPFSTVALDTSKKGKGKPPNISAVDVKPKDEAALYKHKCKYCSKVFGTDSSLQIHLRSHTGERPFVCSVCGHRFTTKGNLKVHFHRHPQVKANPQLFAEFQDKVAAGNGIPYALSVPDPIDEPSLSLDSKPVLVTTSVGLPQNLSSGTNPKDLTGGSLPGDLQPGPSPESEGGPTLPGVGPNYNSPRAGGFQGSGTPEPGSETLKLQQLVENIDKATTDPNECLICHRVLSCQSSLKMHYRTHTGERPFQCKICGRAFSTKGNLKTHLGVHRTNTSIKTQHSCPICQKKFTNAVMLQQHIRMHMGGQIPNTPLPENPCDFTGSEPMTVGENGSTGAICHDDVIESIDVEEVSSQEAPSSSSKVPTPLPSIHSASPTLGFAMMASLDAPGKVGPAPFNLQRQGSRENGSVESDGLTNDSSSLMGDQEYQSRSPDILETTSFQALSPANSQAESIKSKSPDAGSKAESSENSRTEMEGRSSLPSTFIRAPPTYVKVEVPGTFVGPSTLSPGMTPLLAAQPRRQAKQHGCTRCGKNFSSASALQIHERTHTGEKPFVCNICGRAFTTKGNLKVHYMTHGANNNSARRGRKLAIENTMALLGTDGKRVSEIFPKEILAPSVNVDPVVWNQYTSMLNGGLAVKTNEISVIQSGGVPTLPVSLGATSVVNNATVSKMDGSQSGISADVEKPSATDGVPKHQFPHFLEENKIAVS
Method: universal PBM
Molecule type: double-stranded DNA, one strand shown
Sample: in vitro
Tested at: 600 nM
Setting: 8-mer, flanks averaged, mean of replicates
Reading: higher = stronger binding
Quantity: E-score
CGCTGGAG: -0.207
AGTACAAT: 0.201
AGCGCGGG: -0.274
ACATGGCT: -0.0136
ATTCACGC: 0.00173
AGGGCCAA: -0.167
ATCGGGTA: -0.0875
CGTTTGAC: -0.0405
AGCGACAT: 0.0273
CTCGTCCA: -0.0688
ACGGGTCG: -0.2
GAAGAGAA: 0.0974
AATTGGGT: 0.19
GATTGCGA: -0.0289
GCGTAAAC: -0.0861
CACGCTCG: -0.292
CGAGTTTA: -0.0328
ACTAGCTA: -0.073
CGGCCACC: -0.274
TACTACCA: 0.0483
TTATGAAA: 0.447
AGCGGCTC: -0.289

Series 4
Target: Fragile X messenger ribonucleoprotein 1, C-terminal low-complexity region (Fmr1, Mus musculus, UniProt P35922)
Method: RNA Bind-n-Seq
Molecule type: RNA
Sample: in vitro
Tested at: 200 nM
Setting: whole 134-nt RNA, ends assumed
Together with: 150 mM LiCl
Relative to: input library
Reading: higher = stronger binding
Quantity: log2 enrichment
Each molecule: 7-deaza-guanosine replaces G
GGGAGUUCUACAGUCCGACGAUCUGGUGUUCAUAUUGCUGAUGUGAGCCAUUUUAUUAGGCCAGGAAAUGCCUUGGAUCAAGAAUCAGCCAGAAGAGGAACAACUGUGUAUCUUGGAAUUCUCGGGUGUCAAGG: -1.83
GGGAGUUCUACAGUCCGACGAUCGUCCUGUGCUACACAUCGUAUGUACCGAAUCGGUUUUUUUGGUUUUUGGAAAAAAAGGAAAGUAUUAUGUUACGCCGUUCGGAUCUGCACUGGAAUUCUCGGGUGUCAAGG: -2.3
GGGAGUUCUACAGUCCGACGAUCAAGUCCUGUGCUACACAUCGUAUGUACCGAAUCGGGGCCCGGCCCGGGGCCCGGGGAAAGUAUUAUGUUACGCCGUUCGGAUCUGCACUUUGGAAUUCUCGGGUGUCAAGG: -2.22
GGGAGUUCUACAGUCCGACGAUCUGGGAGGUGGAUUUUGUUUAUUUUUUUAGCUCAUUUCCAGGGGUGGGAAUUUUUUUUUAAUAUGUUUCAUGAAUAAAGUUGUUUUUGAAAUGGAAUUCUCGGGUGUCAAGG: -0.108
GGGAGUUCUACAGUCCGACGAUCCCUCAAGUCCUGUGCUACACAUCGUAUGUACCGAAUCGGGUGGGUGGUGGGGAAAGUAUUAUGUUACGCCGUUCGGAUCUGCACUUCCAGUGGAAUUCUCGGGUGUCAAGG: -0.293
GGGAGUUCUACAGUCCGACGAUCUUAAAACAUGGCAACUUGUAAUUGUUUUCUUUCUUAGGAACAUCAUUCAUGGCAGUGAUUCAGUAAAAAGUGCUGAAAAAGAAAUCAGCCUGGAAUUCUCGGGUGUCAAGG: -1.02
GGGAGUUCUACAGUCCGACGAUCUUUGUCCCUGCUCAGGAUGAGACUUCUGUGAGCAGCGAGGAUUUUGAUAUGAGCGACUCCACAUGGAUGUCAGCUGACCCGCACCUGGCCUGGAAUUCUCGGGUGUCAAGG: -1.9
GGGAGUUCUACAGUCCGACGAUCCCUCAAGUCCUGUGCUACACAUCGUAUGUACCGAAUCGGAGGAGGAAAAAGGAAAGUAUUAUGUUACGCCGUUCGGAUCUGCACUUCCAGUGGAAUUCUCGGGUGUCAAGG: -0.805

Repeated from above (series 1):
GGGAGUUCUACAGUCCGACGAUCCCCCGCCCUGAAGAGCUUCAGAAAUAGUGGGAGUUUCCCUAAAGCCUUUCAUAGCCUUAAUUCAUGUCAUGUAUAAAUUAACAUAAAUCAUGUCUAUUUACAUAGUGAAGUGGAAUUCUCGGGUGCCAA: 0.307
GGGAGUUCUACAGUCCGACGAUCGGGGACAUUAGACUGAAAACUGGGACAACCCCCUUCCUUAUUUUAUAGAGACUAGGAGUUAAGGGGCCUGCCUAAGAUUGCAGUGAUAAAGAACUGAACCCUAAAUCAGCUGGAAUUCUCGGGUGCCAA: 0.336
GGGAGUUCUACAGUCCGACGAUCUCUUAGAAUUUUGAGGAAAAUCUGGGACUUGAGACCUGGAUUCUAACAGACCAACUGCAUGUGUGUCUGUAGGUCUCAGUUUCCACAUUCAUACAGUGAGGGUGUUAAGUUGGAAUUCUCGGGUGCCAA: 20.9
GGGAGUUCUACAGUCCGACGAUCUUUGGGAGUUUAUGCAAGGUGGCUGGGCUUUUAAGAACAACAUGGACAUCAGAAAUCACCAGAACCUUCAGGAUCGCCUGCAGGCAGCCCAUCUACUGCUGGCCAGGAGCUGGAAUUCUCGGGUGCCAA: 0.714
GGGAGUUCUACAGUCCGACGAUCUGUCCCAAACUGGCCCACCAAUGAGCAUGGCGGCUCCGGCCAGGAAUGCCAGAGUUAGCCUCCCAGGCUUGCGGGUGGACAUGCCUGCUCCCUGCCAGCCUCCAGUGGCCUGGAAUUCUCGGGUGCCAA: 2.91
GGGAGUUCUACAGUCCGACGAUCGAGGGGCUCUCUACCUUUGAAACUAUGAGAACGUCUUAAAUUAAUAUGAAUAUUUCUCUCCAUGUAUAGUGUGAGCUGCCAAUGCAUUAUCUUAAUACAUCAAGAAGGAAUGGAAUUCUCGGGUGCCAA: 0.367
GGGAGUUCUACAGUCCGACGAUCAAGCAAAGUCACUUCUCCAUCACAACCAGAUUUGAGGCUGGUUUUGAUGGCUGGGUCCUUGGGCCUGGCCAGUCUUCCUCUUAGCCUCUGGAUCUAGAAGGGACCAUAAGUGGAAUUCUCGGGUGCCAA: 0.235
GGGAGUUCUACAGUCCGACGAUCCUCAUCUGAAUACCAAGCACAGAAAUGAGUGGUGUGACUAAUUCCUUACCUCUCCCAAGGAGGGUACACAACUAGCACCAUUCUUGAUGUCCAGGGAAGAAGCCACCUCAUGGAAUUCUCGGGUGCCAA: 0.272
